Experimental data of several laboratories.
A part holds a random share of what one study measured. Positions count from the first letter of the parent shown.

Series 1 — technique: RNA Bind-n-Seq; molecule type: RNA; sample: in vitro; concentration: 200 nM; setting: whole 134-nt RNA, ends assumed; together with: 150 mM KCl; relative to: input library; direction: higher = stronger binding; quantity: log2 enrichment
Target: Ras GTPase-activating protein-binding protein 1, full length (G3BP1, Homo sapiens, UniProt Q13283)
Chain of UniProt Q13283 (whole entry, looked up): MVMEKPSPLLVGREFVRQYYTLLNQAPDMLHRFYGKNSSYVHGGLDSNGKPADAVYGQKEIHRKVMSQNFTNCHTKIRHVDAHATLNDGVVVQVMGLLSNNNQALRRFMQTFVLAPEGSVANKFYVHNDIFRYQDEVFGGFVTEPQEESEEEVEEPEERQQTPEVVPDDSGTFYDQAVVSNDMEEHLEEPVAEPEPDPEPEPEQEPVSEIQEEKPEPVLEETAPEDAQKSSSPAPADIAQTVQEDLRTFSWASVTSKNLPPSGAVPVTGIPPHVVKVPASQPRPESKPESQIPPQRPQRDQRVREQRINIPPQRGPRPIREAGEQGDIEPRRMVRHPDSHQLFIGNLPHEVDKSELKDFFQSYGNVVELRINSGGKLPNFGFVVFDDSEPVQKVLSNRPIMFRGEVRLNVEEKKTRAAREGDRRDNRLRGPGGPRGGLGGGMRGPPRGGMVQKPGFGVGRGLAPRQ
Constant ends, left off below: GGGAGUUCUACAGUCCGACGAUC … UGGAAUUCUCGGGUGUCAAGG
CACAGACAACACGCACCCACACAGACACAGAGGGAAGGGGUUGGGAUGGGGACAGGGUGCACAGCAGGGCAGGGUAGGACCCCAGCCCCU: 2.01
CUCAAGUCCUGUGCUACACAUCGUAUGUACCGAAUCGGGGCGGGGCGGGGCGGAAAGUAUUAUGUUACGCCGUUCGGAUCUGCACUUCCA: 1.11
UCAAGUCCUGUGCUACACAUCGUAUGUACCGAAUCGGCCCGGGGCCCGGCCCGGAAAGUAUUAUGUUACGCCGUUCGGAUCUGCACUUCC: -0.608
GCAGGAAGUAAAAACAAAUGGAAAUGCUUCGGAUAGUGGCAGGGGCGGGGGUUGCUAAGGAAAGGGUGGGAUGGGAGUGGGUAAAGAGUU: 1.2
UGGGAGGUGGAUUUUGUUUUUUUUUUUAGCUCAUUUCCAGGGGUGGGAAUUUUUUUUUAAUAUGUGUCAUGAAUAAAGUUGUUUUUGAAA: 0.314
AGUCCUGUGCUACACAUCGUAUGUACCGAAUCGUGUGUGUGUGUGUGUGUGUGUGUGAAAGUAUUAUGUUACGCCGUUCGGAUCUGCACU: 0.676
UUAGAAGAAGUGGAAAGGAAAAAACGCCAAAGGGAGUUGGAAAUUGAAGAACGAGAACGGCGUAGAGAGGAAGAGAGAAGACUUGGCGAU: 0.573
CCUGUGCUACACAUCGUAUGUACCGAAUCGGGGAAAGGGGAAAAAAAGGGGUUUUUGGGGAAAGUAUUAUGUUACGCCGUUCGGAUCUGC: 0.344
AGUCCUGUGCUACACAUCGUAUGUACCGAAUCGGUUUUUGGAAAAAGGAAAAAAAGGAAAGUAUUAUGUUACGCCGUUCGGAUCUGCACU: -1.28
GUCCUGUGCUACACAUCGUAUGUACCGAAUCGGGGUGGGGAAAAAAAGGGGAAAGGGGAAAGUAUUAUGUUACGCCGUUCGGAUCUGCAC: 0.539
UCAAGUCCUGUGCUACACAUCGUAUGUACCGAAUCGGGUUGGGUUGGGGUUGGGAAAGUAUUAUGUUACGCCGUUCGGAUCUGCACUUCC: 1.09
AGUCCUGUGCUACACAUCGUAUGUACCGAAUCGGGGAGGGGAAAAAGGGGAAAGGGGAAAGUAUUAUGUUACGCCGUUCGGAUCUGCACU: 0.482
GUCCUGUGCUACACAUCGUAUGUACCGAAUCGGGAAAAAGGGAAAAAGGGAAAAAGGGGAAAGUAUUAUGUUACGCCGUUCGGAUCUGCA: -0.208
CUCAAGUCCUGUGCUACACAUCGUAUGUACCGAAUCGGGGAGGGAGGGAGGGGAAAGUAUUAUGUUACGCCGUUCGGAUCUGCACUUCCA: 1.64

Series 2 — technique: RNA Bind-n-Seq; molecule type: RNA; sample: in vitro; concentration: 365 nM; relative to: no-protein control; direction: higher = stronger binding; quantity: RBNS enrichment (R)
Target: RNA binding protein fox-1 homolog 2, RRM domain, GST-SBP tag (RBFOX2, Homo sapiens, UniProt O43251-10, residues 100-194)
Setting: natural RNA segment, single round, ends assumed
Constant ends, left off below: GGGAGUUCUACAGUCCGACGAUC … UGGAAUUCUCGGGUGCCAA
Construct (chain): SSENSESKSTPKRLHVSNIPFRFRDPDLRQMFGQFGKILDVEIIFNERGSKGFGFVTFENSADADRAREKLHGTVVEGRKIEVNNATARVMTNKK
AAUUUUCAGUAGAAUAGUUGAAUGUGUUAAGAUAGGAUUUUAUGUUAGAGAUACCAGAAUGCUGGUAUUCUACUACUUGUGCAAUAUAUAUGUUUUAAAAAACAAAUUUG: 0.515
UAAGUUCAGAAGUCUUAAGUGUGCAAGCGUUUAUGUGACCGUGCCAUUCCAGAGUGCAUCAGAACUGUCAUCCCUUCCAGGACCUUCUCAGGAGUAACACAUCAGGUAUG: 0.275
GCUGAGUUCAGGAUGCCUGCGUGUGGUUUAGGUGUUAGCCUUCUUACAUGGAUGUCAGGAGAGCUGCUGCCCUCUUGGCGUGAGUUGCGUAUUCAGGCUGCUUUUGCUGC: 0.236
AUCAGAAACUAUUAAAAUUAAGGCUAAGUGGCUAUCGGGGUAAAUAGUGCCAGAUUACUAUUGGUGGCGUUUAAGAUGAAAGCAAGUUCAAAAUUUGUCAUUUUGGGUGU: 0.65
CAAAAGGGAUUUUUAUUUCACAGCUAAAGGGAAAAUAGGUGGAGAAGUUAAAAAAUAAUGUCUGAUCCUGUUCCUAAGUUCCAAACUAUAGCCAACACUCUGAUGCUGCU: 0.488
CCCUCUGCCGGGGUCCGGAAGCGACAUCUCAGGAGGUAGCUCUCAGCAGAGUGAGGAUUCCUGCCUUUCGUAGAGUUUUGUGUGACUUUUUAAAUUAUUCAUGUGUCCCU: 0.54
ACUUGGUAGAUACUGCUCCAAUAUCCUGUUGCUAGCCCCCACCUCCUUCUGGAACAGUGUGAGACAAUUAAACUUCAUUCCCUGUGGGUUAGCACUUAAUAUGUAGAAGC: 0.415
CCCACCACGGACUGCUCAGCCUGCUUCUCUCCCGGAACUUAAGGUCCAGCCAGACUUCAGGAUCUGUUGCAGGAGUUGGACUCACUGUGGGAAAAGCAGCGUUCCCUCUC: 0.261
UAUGACAGAGGUUAGAGUCAGUACUGUUGGCGUAAGGAUUUCAUCUUUGGAACACAGGGUAUGCCUCUGGUUAAUAAGCUAAGCAAUAAAAUUACACGAAAUAUAAAUGU: 0.624
CCAUGAAGUGAUUCUGUUGACAAUAAUGUAUACUGCGCGUUCUCUUCACUGGUUUAUCUGCAGAAAUUUCUCUGGGCUUUUUUCGGUGUUAGAUUCAACACUGCGCUAAA: 0.466
UAUGCAACAACUCCUGUACCCCAGUCCACGGUGUUCUGGCAGCAGGGACACCUGGGCCAAUGGGCCAUCUGGACCAAAGGUGGGGUGUGGGGCCCUGGAUGGCAGCUCUG: 0.381
CCCGCCACGGUGGAUGUAUGUGCGCUCACCUGAGCUUGCUUGGGCCCAGUGUGGGGGUGGCAGGCAGGUGAGGGCUCCGUUGCCUUGGUCUGGGGGCAGAAAUAAAAUCC: 1.92

Series 3 — target: CCNF, cyclin fold, Cln2 fusion (human); technique: yeast growth competition, sequencing; sample: yeast; setting: strong parent motif; relative to: not given; direction: higher = stronger binding; quantity: normalised enrichment score
Starting sequence: PLK5 docking peptide (human); IFRKVGQRLLTQC
G6A: 2.77
Q12A: 3.11
K4A: 2.4
L10A: 1.15
R3A: 2.63
R8A: 2.67

Series 4 — technique: protein binding microarray; molecule type: double-stranded DNA, one strand shown; sample: in vitro; concentration: not given; relative to: not given; direction: higher = stronger binding; quantity: E-score
Target: Histone acetyltransferase KAT6A, winged helix 1, GST fusion (KAT6A, Homo sapiens, UniProt Q92794, residues 1-85)
Setting: 8-mer, flanks averaged, mean of 2 arrays, mostly near background
Construct (chain): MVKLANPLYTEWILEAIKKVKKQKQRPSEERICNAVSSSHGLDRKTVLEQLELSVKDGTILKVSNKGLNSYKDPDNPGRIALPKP
GCTACCCC: -0.0537
CATCCTGG: -0.164
ACCATTGG: -0.129
CGCGATGA: 0.202
AAAACAGT: -0.0678
ATCCTTCA: -0.157
CTGGGAAA: -0.156
CCCTAGAC: -0.173
CCCACGCG: 0.292
CGAGCGAC: 0.0589
AAGGTTCG: 0.00366
GCCAGGAC: 0.046
CCTAGCTA: -0.15
GAACATTA: -0.13
AGGGTGCC: -7e-05
CATAGTAA: -0.169
CATAGACG: 0.0251
CAACTATG: -0.12
GTGCAGCA: 0.0176
GAGGGACA: -0.168
CATACCAA: 0.0129
CAGGACAA: -0.244

Series 5 — technique: RNAcompete; molecule type: RNA; sample: in vitro; concentration: 20 nM; setting: 7-mer, probes averaged, single round; relative to: mean of 7-mers; direction: higher = stronger binding; quantity: 7-mer Z-score
Target: PABPC1L2, full length, GST fusion (mouse, UniProt A0ABA7IW68)
Target sequence (chain): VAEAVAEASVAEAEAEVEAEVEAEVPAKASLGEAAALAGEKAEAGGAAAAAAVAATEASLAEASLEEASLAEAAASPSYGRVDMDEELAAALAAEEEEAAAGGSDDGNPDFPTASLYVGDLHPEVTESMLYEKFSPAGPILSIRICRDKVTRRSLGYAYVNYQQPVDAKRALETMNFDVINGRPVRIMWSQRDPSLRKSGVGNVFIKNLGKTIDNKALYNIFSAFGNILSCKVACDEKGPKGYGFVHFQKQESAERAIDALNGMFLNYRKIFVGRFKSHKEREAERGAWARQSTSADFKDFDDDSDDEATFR
ACCCUCC: -0.278
GUCAUCG: -0.206
GGCUUCC: -0.365
GCCGGUC: -0.224
CCUAAGG: -0.253
CUAAUUC: -0.269
AGCCGGU: -0.0989
AAGCUCU: -0.209
GCGGGAU: 0.303
GGGAGCA: 0.249
CCUGUCC: -0.385
UGAAAUC: -0.184
CCAACCA: 0.017
GAUCGCU: -0.168
CCCAUAG: -0.36
UAAUACA: 0.0968
CUAGAUA: -0.0754

A few entries again (series 4):
GCTACCCC: -0.0537
CATCCTGG: -0.164
ACCATTGG: -0.129
CGCGATGA: 0.202
AAAACAGT: -0.0678
ATCCTTCA: -0.157
CTGGGAAA: -0.156
CCCTAGAC: -0.173
CCCACGCG: 0.292
CGAGCGAC: 0.0589
AAGGTTCG: 0.00366
GCCAGGAC: 0.046
